Measurements from different studies.
Each line is one published result; not all experiments were run side by side. “And” joins repeats or separate records; there may be more than shown. ± gives the spread as reported. ≈ marks a conversion by molar mass, not a printed value.

COc1ccc(-c2cc(-c3ccccc3)nc(SCC(=O)Nc3nccs3)c2C#N)cc1
maximal activity (Mus musculus; gene silencing, high-content imaging; LDR reporter GFP cells; retest run 2): 42%

CCCCN1C[C@H]2CC[C@@H]3[C@](C)(COC(C)=O)[C@H](OC(C)=O)CC[C@@]3(C)[C@@H]2C[C@@H]1C1=CCOC1=O
inhibition (Human coronavirus 229E; cytopathic effect; MRC5; 25 µM, corrected for cytotoxicity): 60.7%

NS(=O)(=O)c1ccc(N/C=C2\C(=O)Nc3ccc4ncsc4c32)cc1
selectivity (Trypanosoma brucei; unit not given; relative to: pEC50 T. brucei minus pTC50 HepG2): > 2.5

CC(C)C(=O)N1CCN(c2ccc(NC(=O)c3ccc([N+](=O)[O-])o3)cc2Cl)CC1
maximal activity (Mus musculus; gene silencing, high-content imaging; LDR reporter GFP cells; retest run 2): 99%

CCCCCCCCCC(=O)N[C@@H](Cc1c[nH]c2ccccc12)C(=O)N[C@H](CC(N)=O)C(=O)N[C@@H](CC(=O)O)C(=O)N[C@@H]1C(=O)NCC(=O)N[C@@H](CCCN)C(=O)N[C@@H](CC(=O)O)C(=O)N[C@H](C)C(=O)N[C@@H](CC(=O)O)C(=O)NCC(=O)N[C@H](CO)C(=O)N[C@@H]([C@H](C)CC(=O)O)C(=O)N[C@@H](CC(=O)c2ccccc2N)C(=O)O[C@@H]1C
MIC (Staphylococcus aureus; SH1000; with: phosphatidylcholine, molar ratio 0.5): 1 µg/mL

CN(c1ccccc1)S(=O)(=O)c1nnc(NC(=O)c2ccccc2)s1
maximal activity (Mus musculus; gene silencing, high-content imaging; LDR reporter GFP cells; retest run 2): 180%

COc1ccc2c(-c3nc(-c4c(C)[nH]c5ccc(OC)cc45)cs3)c[nH]c2c1
IC50 (Human papillomavirus 16; viral genome amplification; differentiated W12E): ~1 µM

CC(C)n1ncc2c(C(=O)NCC3(C)CNC3)cc(C3CC3)nc21
plaque reduction (Enterovirus D68; viral replication; RD, US/MO/14-18947; 1000 nM): 95% and 90%

O=c1[nH]c2ncsc2c(=O)n1O
inhibition (Digitaria adscendens; glasshouse pot; 1500 g/ha, 21 days, pre-emergence): 2.3%

Cc1ccc(C(C)C)c(OC2=C(Cl)C(=O)c3ccccc3C2=O)c1
zone of inhibition (Aspergillus niger; ITCC 7787; 10 µg/mL): 15 mm

COc1cc(/C=N/Nc2ncnc3c2cnn3C(C)C)ccc1O
selectivity (Trypanosoma brucei; unit not given; relative to: pEC50 T. brucei minus pTC50 HepG2): > 2

Cc1ccc(NC(=O)c2c(C)nc3sc(C(=O)NC4CCCC4)c(N)c3c2-c2ccco2)c(C)c1
maximal activity (Mus musculus; gene silencing, high-content imaging; LDR reporter GFP cells; retest run 2): 61%

CO[C@H]1/C=C/O[C@@]2(C)Oc3c(C)c(O)c4c(c3C2=O)C2=NC3(CCN(CC(C)C)CC3)NC2=C(NC(=O)/C(C)=C\C=C\[C@H](C)[C@H](O)[C@@H](C)[C@@H](O)[C@@H](C)[C@H](OC(C)=O)[C@@H]1C)C4=O
IC90 (Mycobacteroides abscessus; intracellular growth, Hill fit; THP-1 derived macrophages, ATCC 19977): 4.3 µM

CC1(C)OC[C@@]2(C)[C@H]3CC[C@@H]4CN(Cc5ccc(O)cc5)[C@@H](C5=CCOC5=O)C[C@H]4[C@]3(C)CC[C@H]2O1
inhibition (Human coronavirus 229E; cytopathic effect; MRC5; 25 µM, corrected for cytotoxicity): 40%

CC[C@@H]1C(=O)N(C)c2cnc(Nc3ccc(C(=O)N[C@H]4CC[C@H](N5CCN(CC6CC6)CC5)CC4)cc3OC)nc2N1C(C)C
EC50 (Trypanosoma brucei; cell growth): > 3 µM

Cc1cc(OC(C)C)ccc1C(=O)C(C)(C)NC(=O)c1sccc1C
EC50 (Venturia inaequalis; mycelial growth; PSA medium; 20 °C): 0.79 µg/mL

COC(=O)[C@H](Cc1c[nH]c2ccccc12)NCc1cc2ccccc2nc1SC
growth (Pseudomonas aeruginosa; 64 µg/mL, without pentamidine; relative to: control): 96.9%

CCCN1CCC(c2ccc(Nc3nc(Nc4cc(F)ccc4C(N)=O)c4cc[nH]c4n3)c(OC)c2)CC1
selectivity (Trypanosoma brucei; unit not given; relative to: pEC50 T. brucei minus pTC50 HepG2): 1.5

Cc1nc2[nH]c(=O)n(O)c(=O)c2s1
inhibition (Digitaria adscendens; glasshouse pot; 750 g/ha, 21 days, pre-emergence): 0%

COc1cc2c(cc1C(=O)Nc1ccc(C(C)(C)C#N)cc1)CCCCC2
EC90 (West Nile virus; viral replication; HEK293): 0.2 µM

Cc1cc(Nc2ccc(S(F)(F)(F)(F)F)cc2)n2nc(C(C)(F)F)nc2n1
parasite clearance lag phase (Plasmodium falciparum; microscopy; infected human patients; dose not given): ≤ 40 h

CN[C@H](CC(C)C)C(=O)N[C@H]1C(=O)N[C@@H](CC(N)=O)C(=O)N[C@H]2C(=O)N[C@H]3C(=O)N[C@H](C(=O)N[C@H](C(=O)O)c4cc(O)cc(O)c4-c4cc3ccc4O)[C@H](O)c3ccc(c(Cl)c3)Oc3cc2cc(c3O[C@@H]2O[C@H](CO)[C@@H](O)[C@H](O)[C@H]2O[C@H]2C[C@](C)(N)[C@H](O)[C@H](C)O2)Oc2ccc(cc2Cl)[C@H]1O
MIC50 (Staphylococcus aureus; MRSA, 10 isolates; serum 25%): 4 µg/mL (≈ 2.76 µM)

C[C@@]12COCO[C@@H]1CC[C@]1(C)[C@@H]2CC[C@@H]2CN(Cc3ccco3)[C@@H](C3=CCOC3=O)C[C@H]21
inhibition (Human coronavirus 229E; cytopathic effect; MRC5; 25 µM, corrected for cytotoxicity): 54.8%

Nc1nc(Nc2ccc(S(N)(=O)=O)cc2)nn1C(=O)c1c(F)cccc1F
EC50 (Trypanosoma brucei; cell growth): 0.283 ± 0.044 µM

Br.CN(C)c1nc(=Nc2cccc(Cl)c2)ss1
maximal activity (Mus musculus; gene silencing, high-content imaging; LDR reporter GFP cells; retest run 1): 11%

COc1ccccc1-c1cc(/C=C2\C(=O)Nc3ncc(Br)cc32)cc(Br)c1O
selectivity (Trypanosoma brucei; unit not given; relative to: pEC50 T. brucei minus pTC50 HepG2): 1.4

O=C1O[C@H]2[C@@H]3OC(=O)c4cc(O)c(O)c(O)c4-c4c(O)c(O)c5oc(=O)c6c(c(O)c(O)c7oc(=O)c4c5c76)-c4c(cc(O)c(O)c4O)C(=O)OC[C@H]3OC(O)[C@@H]2OC(=O)c2cc(O)c(O)c(O)c2-c2c1cc(O)c(O)c2O (mixture of isomers)
MBC/MIC ratio (Streptococcus mutans; broth microdilution): 2

CC(=O)NC[C@H]1CN(c2ccc(N3CCOCC3)c(F)c2)C(=O)O1
MIC50 (Staphylococcus aureus; broth microdilution; methicillin-susceptible isolates): 0.5 µg/mL (≈ 1.48 µM)

O=C1OC[C@H]2OC(O)[C@H](O)[C@@H](O)[C@@H]2OC(=O)c2cc(O)c(O)c(O)c2-c2c(O)c(O)c3oc(=O)c4c(c(O)c(O)c5oc(=O)c2c3c54)-c2c1cc(O)c(O)c2O (mixture of isomers)
initial rate of glycolytic pH drop (Streptococcus mutans; MIC, first 15 min, with: glucose 1%): 0.032 pH units/min

CCn1c(=O)c(-c2cc[nH]n2)cc2c(C)nc(N)nc21
viral RNA level (Enterovirus A71; viral entry, RT-qPCR; 0.8 µM, 1 h, 37 °C; relative to: untreated): decreased

Oc1[nH]c2ccccc2c1N=NC(=S)N1CCOCC1
maximal activity (Mus musculus; gene silencing, high-content imaging; LDR reporter GFP cells; retest run 1): 85%

Nc1nc(-c2ccccc2)nc2[nH]nc(Nc3ccc(C(F)(F)F)cc3)c12
clinical score (coxsackievirus B3; 31-1-93, NMRI mice, CVB3 chronic myocarditis; oral, 100 mg/kg twice daily, day 1, dosed days 0 to 6, score scale 0 to 7; direction not given): 0

O=c1c(O)c(-c2ccc(O)cc2)oc2cc(O[C@@H]3O[C@H](CO)[C@@H](O)[C@H](O)[C@H]3O)cc(O)c12
MBC (Streptococcus mutans; ATCC 700610): 400 µg/mL (≈ 892 µM)

COc1ccc2c(c1)c1ccc3c(c1n2C)C(=O)C=CC3=O
maximal activity (Mus musculus; gene silencing, high-content imaging; LDR reporter GFP cells; retest run 1): 83%

COc1ccc2c(c1OC)C(CO)N(C)c1c-2ccc2cc3c(cc12)OCO3 (centres unmarked)
optimal concentration (Apostichopus japonicus; cell viability): 30 µM

CC1(C)OC[C@@]2(C)[C@H]3CC[C@@H]4CN(Cc5ccccc5C5CC5)[C@@H](C5=CCOC5=O)C[C@H]4[C@]3(C)CC[C@H]2O1
inhibition (Human coronavirus 229E; cytopathic effect; MRC5; 25 µM, corrected for cytotoxicity): 76.4%

C[n+]1cc(NC(=O)c2ccc3ccc4ccc(C(=O)Nc5cc6ccccc6[n+](C)c5)nc4c3n2)cc2ccccc21
differentially expressed genes (Trypanosoma brucei; RNA-seq; Lister 427 bloodstream form; 2 × EC50, 4 h, log2 FC 1, FDR 0.05; relative to: untreated): 294 genes

O=c1[nH]c(CCl)nc2scc(-c3cccc(F)c3)c12
selectivity index (Trypanosoma brucei brucei; 449 Lister 427 bloodstream form; 24 h; relative to: EC50 HEK293 over EC50 T. brucei): 5 ± 1.6

Br.N=c1n(CC(=O)c2ccc([N+](=O)[O-])cc2)c2ccccc2n1Cc1ccccc1Cl
maximal activity (Mus musculus; gene silencing, high-content imaging; LDR reporter GFP cells; retest run 2): 63%

Cc1c2ccc(N(C)c3ccnc(Nc4cccc(S(N)(=O)=O)c4)n3)cc2nn1C
selectivity (Trypanosoma brucei; unit not given; relative to: pEC50 T. brucei minus pTC50 HepG2): 0.8

CC(=O)NC[C@H]1CN(c2ccc(N3CCOCC3)c(F)c2)C(=O)O1
CFU decrease (Staphylococcus aureus; time-kill; MRSA NRS123 USA400; 4 × MIC, 24 h, 37 °C): 1.89 log10

C=CC[C@@H]1c2ccc(OC)c(OC)c2CN2CCc3cc4c(cc3[C@H]12)OCO4
relative wound size (Staphylococcus aureus; P2rx7+/+ mice, skin wound infection; dose not given, day 2; relative to: day 0): 0.78 and 0.94 and 0.66 and 0.93 and 0.95

CCn1c(-c2nonc2N)nc2c(C#CC(C)(C)O)nc(OC[C@H](N)c3ccccc3)cc21
selectivity (Trypanosoma brucei; unit not given; relative to: pEC50 T. brucei minus pTC50 HepG2): 0.8

CC(=O)OC[C@@]1(C)[C@H]2CC[C@@H]3CN(Cc4ccc(F)cc4)[C@@H](C4=CCOC4=O)C[C@H]3[C@]2(C)CC[C@H]1OC(C)=O
inhibition (Human coronavirus 229E; cytopathic effect; MRC5; 25 µM, corrected for cytotoxicity): 77.5%

N=C(N)c1ccc(OCc2ccc(-c3ccccc3)cc2COc2ccc(C(=N)N)cc2)cc1
MIC in combination (Escherichia coli; BW25113; concentration not given, lowest-FICI combination, with: novobiocin): 6.25 µg/mL

CC1(C)OC[C@@]2(C)[C@H]3CC[C@@H]4CN(Cc5cccs5)[C@@H](C5=CCOC5=O)C[C@H]4[C@]3(C)CC[C@H]2O1
inhibition (Human coronavirus 229E; cytopathic effect; MRC5; 25 µM, corrected for cytotoxicity): 39.3%

CCCCCCCNC1=C(n2cncn2)C(=O)c2ccccc2C1=O
zone of inhibition (Aspergillus niger; ITCC 7787; 10 µg/mL): 8 mm

Repeated from above:
CN[C@H](CC(C)C)C(=O)N[C@H]1C(=O)N[C@@H](CC(N)=O)C(=O)N[C@H]2C(=O)N[C@H]3C(=O)N[C@H](C(=O)N[C@H](C(=O)O)c4cc(O)cc(O)c4-c4cc3ccc4O)[C@H](O)c3ccc(c(Cl)c3)Oc3cc2cc(c3O[C@@H]2O[C@H](CO)[C@@H](O)[C@H](O)[C@H]2O[C@H]2C[C@](C)(N)[C@H](O)[C@H](C)O2)Oc2ccc(cc2Cl)[C@H]1O
MIC50 (Staphylococcus aureus; MRSA, 10 isolates; serum 25%): 4 µg/mL (≈ 2.76 µM)

C[C@@]12COCO[C@@H]1CC[C@]1(C)[C@@H]2CC[C@@H]2CN(Cc3ccco3)[C@@H](C3=CCOC3=O)C[C@H]21
inhibition (Human coronavirus 229E; cytopathic effect; MRC5; 25 µM, corrected for cytotoxicity): 54.8%

Nc1nc(Nc2ccc(S(N)(=O)=O)cc2)nn1C(=O)c1c(F)cccc1F
EC50 (Trypanosoma brucei; cell growth): 0.283 ± 0.044 µM

Br.CN(C)c1nc(=Nc2cccc(Cl)c2)ss1
maximal activity (Mus musculus; gene silencing, high-content imaging; LDR reporter GFP cells; retest run 1): 11%

COc1ccccc1-c1cc(/C=C2\C(=O)Nc3ncc(Br)cc32)cc(Br)c1O
selectivity (Trypanosoma brucei; unit not given; relative to: pEC50 T. brucei minus pTC50 HepG2): 1.4

O=C1O[C@H]2[C@@H]3OC(=O)c4cc(O)c(O)c(O)c4-c4c(O)c(O)c5oc(=O)c6c(c(O)c(O)c7oc(=O)c4c5c76)-c4c(cc(O)c(O)c4O)C(=O)OC[C@H]3OC(O)[C@@H]2OC(=O)c2cc(O)c(O)c(O)c2-c2c1cc(O)c(O)c2O (mixture of isomers)
MBC/MIC ratio (Streptococcus mutans; broth microdilution): 2

CC(=O)NC[C@H]1CN(c2ccc(N3CCOCC3)c(F)c2)C(=O)O1
MIC50 (Staphylococcus aureus; broth microdilution; methicillin-susceptible isolates): 0.5 µg/mL (≈ 1.48 µM)
